# Measurements of several laboratories.
# Parts stem from different laboratories: compare values within a part only. Changes are numbered by the printed parent chain.

# Set 1
# Target: Sal-like protein 4, full length isoform B (SALL4, Homo sapiens, UniProt Q9UJQ4-2, residues 1-616)
# Technique: universal PBM
# Form: double-stranded DNA, one strand shown
# Matrix: in vitro
# Concentration: not given
# Notes: 8-mer, flanks averaged, mean of replicates
# Direction: higher = stronger binding
Oligonucleotide,E-score
ATGGCAGC,0.0456
GCCTCAAC,0.0264
AACATTGC,-0.0333
CCCGTTAG,-0.194
CCAGAAGA,0.0658
ATGTACTA,0.188
AAATCCCT,-0.0338
CTACAGAG,0.0404
GAAAAATC,0.141
CATTCCAG,-0.0338
CGATGTCA,-0.0143
GTTCGAAA,0.129
TCCTCCCA,-0.0623
AGAGAAGA,0.0899
ACCGTATG,0.0511
ACTGACCT,-0.0066
ACGAAGGG,-0.22
CGTTTCCA,0.0475

# Set 2
# Target: CCNE1, cyclin fold, Cln2 fusion (human)
# Technique: yeast growth competition, sequencing
# Matrix: yeast
# Notes: weak parent motif
# Baseline: not given
# Direction: higher = stronger binding
# Starting sequence: WEE1 docking peptide (human); HKTFRKLRLFDTP
Variant,normalised enrichment score
HKTFRKLCLFDTP [R8C],0.833
HKTFYKLRLFDTP [R5Y],0.0609
HKTFRKFRLFDTP [L7F],0.827
HKTFRKLRLFDTV [P13V],1.19
HKTFRKLRRFDTP [L9R],0.179
HKTFRYLRLFDTP [K6Y],0.654
HKTFRKLRGFDTP [L9G],0.8
HKTCRKLRLFDTP [F4C],0.206
HKTFRKLLLFDTP [R8L],0.38
HKTFRKLRLWDTP [F10W],0.727
HKTFRKLRLFDTY [P13Y],0.553
HKTFRKLRLCDTP [F10C],0.485
HKEFRKLRLFDTP [T3E],-0.0314
HKTFRKLRWFDTP [L9W],0.555
HKDFRKLRLFDTP [T3D],0.524
HKTFRKLRLFSTP [D11S],0.532
HKTFRKLRLPDTP [F10P],0.456
HKTFRILRLFDTP [K6I],1.01
HKTFRKLRHFDTP [L9H],-0.0923
HKTFRKLRLFDPP [T12P],-0.189
HKTFRWLRLFDTP [K6W],1.56
HKTFRKLHLFDTP [R8H],0.944

# Set 3
# Target: Interferon regulatory factor 5, full length, phosphomimetic (IRF5, Homo sapiens, UniProt Q13568-2, residues 1-514, K96S/S451D/S453D/S456D/S462D)
# Technique: protein-binding microarray
# Form: double-stranded DNA, one strand shown
# Matrix: in vitro
# Concentration: 250 nM
# Notes: 60-bp whole probe
# With: salmon DNA 0.4 mg/ml
# Baseline: random background probes
# Direction: higher = stronger binding
# All sequences stand within: GCCTAGCAC … GTCTTGATTCGCTTGACGCTGCTG
Oligonucleotide,log fluorescence
TCAGCTCTCCGGGGTCTGACTGTGCTA,-0.341 z-score
GACGAACTGAGTATCGGGACGTGCTAG,1.42 z-score
TCAAACATCATTTTTCCACTGTGCTAG,0.996 z-score
TTAGATATCAATCTCGATTAGTGCTAG,1.24 z-score
TCCATGCTGGCTTTTATGCGGTGCTAG,-0.672 z-score
TCAAGTCCCGAGAATGGTACTGTGCTA,-0.238 z-score
AGAGCTAAGTGAGTGTCATCGTGCTAG,-0.541 z-score
GTCGGTTTCCTACTGCTGACGTGCTAG,0.745 z-score
TTAGATTTCACACTGGATTAGTGCTAG,0.974 z-score
TAAGATCTCAGTTTCGATTAGTGCTAG,8.81 z-score
GACGATATCGGGTATTGAGACGTGCTA,1.72 z-score
TTAGAACTGGGGACTGGATTAGTGCTA,-0.351 z-score
TTAGTTTTCGGTTCCGGTTAGTGCTAG,9.67 z-score
GTCGGTTTCGGGTTTCGGGACGTGCTA,8.76 z-score
TCACCTTTATATACCTGACTGTGCTAG,0.568 z-score
GACGGTTCCCATTTCCTGACGTGCTAG,0.258 z-score
CACGATATCAGTTTCGAGACGTGCTAG,6.44 z-score
CAGGAATGGCACCAGCAGGGGTGCTAG,-0.608 z-score
TTAGGTATCGACACTGGGGTAGTGCTA,2.11 z-score

# Single results of other studies
Molecule,target,assay,test system,conditions,scale,measurement,result
"PhoQ, residues 284 288 289 292 302 303 WVSSAF","PhoP, residues 12 14 15 18 19 LHATL (Escherichia coli, UniProt P23836)","Sort-seq, measured: YFP reporter",E. coli,"PhoQ-PhoP variant library, with: 10 µM Mg2+","baseline: high Mg2+ state, higher = stronger signaling",fold induction,1.87

# For quick reference, copied from above (set 3):
Oligonucleotide,log fluorescence
AGAGCTAAGTGAGTGTCATCGTGCTAG,-0.541 z-score
GACGATATCGGGTATTGAGACGTGCTA,1.72 z-score
TTAGATATCAATCTCGATTAGTGCTAG,1.24 z-score
TCAGCTCTCCGGGGTCTGACTGTGCTA,-0.341 z-score
